Measurements from different studies.
Compare with care: the assays were run in different laboratories. Numbers after ± are the reported error.

SMILES | target or system | test | test system | setting | how to read | measurement | result
Cc1nc(-c2ccc(OCC(C)C)c(C#N)c2)sc1C(=O)O |  |  | human, plasma | oral, 40 mg, added: verinurad 10 mg | relative to: test over reference | geometric mean ratio AUC(0-24) | 91.6
O=C(Nc1nc2cccc(-c3ccc(CN4CCS(=O)(=O)CC4)cc3)n2n1)C1CC1 |  | measured: lipase increased | human rheumatoid arthritis patients | oral, 150 mg once daily, 4 weeks, regardless of relatedness |  | treatment-emergent adverse events | 0%
CCc1cc(C(=O)NC)c2nccc(N3CCc4c(cc(Cn5ccnc5)cc4-c4cn(C)nc4C(F)(F)F)C3=O)c2c1 |  |  | Sprague Dawley rats | oral, 100 mg/kg once daily, 7 days |  | serum UA level | 288 ± 27.3 µmol/L
COc1cc2c(c(O)c1OC)C(=O)c1c(cc(C)c(O)c1OC)C2=O | HK-2 co-cultured with HepaRG | MTT |  | 33.33 µM, 24 h | relative to: untreated control | cell viability | 71.2 ± 7.31%
CN[C@@H](C)C(=O)N[C@H]1CN(S(=O)(=O)c2cccc(S(=O)(=O)N3CC[C@H]4CC[C@@H](C(=O)NC(c5ccccc5)c5ccccc5)N4C(=O)[C@@H](NC(=O)[C@H](C)NC)C3)c2)CC[C@H]2CC[C@@H](C(=O)NC(c3ccccc3)c3ccccc3)N2C1=O |  | LC-MS/MS, noncompartmental | human, plasma | 45 mg, cycle 1 day 1 |  | median Tmax | 0.51 h
CCCCCCCCCCCCCCCC(=O)N[C@@H](CCC(=O)NCCCC[C@@H]1NC(=O)[C@H]([C@@H](C)CC)NC(=O)[C@@H](NC(=O)[C@@H]2CCCN2C(=O)[C@H](Cc2ccccc2)NC(=O)[C@H](Cc2c[nH]cn2)NC(=O)[C@@H](NC(=O)[C@H](CC(=O)O)NC(=O)CC(C)C)[C@@H](C)O)CSSC[C@@H](C(=O)N[C@@H](CCCCN)C(N)=O)NC(=O)CNC(=O)[C@H](CCCCN)NC(=O)[C@H](CO)NC(=O)[C@H](CCCNC(=N)N)NC(=O)[C@@H]2CCCN2C(=O)[C@H](CCC(=O)O)NC(=O)[C@H](Cc2ccccc2)NC1=O)C(=O)O |  |  | healthy volunteers, plasma | subcutaneous, 60 mg single, lyophilised formulation |  | Vz/F | 104 ± 84.8 L
O=C(O)c1cc(O)c2c(c1)C(=O)c1cccc(O[C@@H]3O[C@H](CO)[C@@H](O)[C@H](O)[C@H]3O)c1C2=O | HK-2 co-cultured with HepaRG | MTT |  | 16.67 µM, 24 h | relative to: untreated control | cell viability | 104 ± 8.97%
Cc1nn(CC(F)(F)F)cc1Nc1ncc(C2CC2)c(NCCc2c[nH]cn2)n1 |  | PAMPA | PBS | 5 h, pH 7.4 |  | effective permeability | 0.389 ×10⁻⁶ cm/s
CC1(C)CC[C@]2(NC(=O)C(C)(F)F)CC[C@]3(C)[C@H](C(=O)C=C4[C@@]5(C)C=C(C#N)C(=O)C(C)(C)[C@@H]5CC[C@]43C)[C@@H]2C1 |  |  | human, plasma | oral, 150 mg once daily, day 23 predose, median |  | trough plasma concentration | 38.2 ng/mL
CCCCCNC(=O)N1CCC(CN(Cc2ccc(Cl)cc2)Cc2ccc([N+](=O)[O-])s2)C1 (stereo not shown) |  |  | C57BL/6 mice | 100 mg/kg twice daily, 7 days |  | mean corpuscular haemoglobin concentration | 30.5 ± 1.3 g/dL
N#C[C@@]1(c2ccc3c(N)ncnn23)O[C@H](CO)[C@@H](O)[C@H]1O |  |  | monkey plasma | 100 µM |  | fraction unbound | 0.816
CC(C)(C)c1ccc(O)c(CN(Cc2cc(C(C)(C)C)ccc2O)C2CCC(NC(N)=O)CC2)c1 (stereo not shown) |  |  | mouse plasma | 2000 ng/mL, 3 months, 4 °C, refrigerator storage |  | recovery | 96.81 ± 0.08%
COc1c(N2C[C@@H]3CCCN[C@@H]3C2)c(F)cc2c(=O)c(C(=O)O)cn(C3CC3)c12 |  |  | healthy volunteers | oral, 400 mg single dose, day 5, 8.00 h |  | QTcI change from baseline | 2.3 ms
COc1cc(C(=O)NC2CCN(C)CC2)c(F)cc1Nc1ncc(C(F)(F)F)c(Oc2cccc3c2C(=O)N(C)C3)n1 |  |  | human patients, plasma | oral, 50 mg once daily repeated, geometric mean |  | dose-normalised AUC(tau) at steady state | 97.8 nmol·h/L per mg
CC[C@H](C)[C@H](NC(C)=O)C(=O)N[C@H]1CSSC[C@@H](C(=O)N[C@H](C(N)=O)[C@@H](C)O)NC(=O)[C@H](CCCNC(=N)N)NC(=O)[C@H](Cc2c[nH]cn2)NC(=O)[C@@](C)(CC)NC(=O)CNC(=O)[C@H](Cc2c[nH]c3ccccc23)NC(=O)[C@H](CC(=O)O)NC(=O)[C@H](CCC(N)=O)NC(=O)[C@H](Cc2c[nH]c3ccccc23)NC(=O)[C@H](C(C)C)NC1=O |  | RP-HPLC, C18 | 28% acetonitrile isocratic | pH 7.4 |  | retention factor | 3.895 ± 0.008
C=CCN1CC(=O)N2[C@@H](Cc3ccc(O)cc3F)C(=O)N(Cc3cccc(N4CC(N5CCN(CC)CC5)C4)n3)C[C@@H]2N1C(=O)NCc1ccccc1 |  | measured: AST increased | human advanced solid tumours | concentration not given, dose escalation grade ≥3 |  | treatment-related adverse events | 0%
C[C@@H](N)C1CCN(S(=O)(=O)c2cccc3cnccc23)CC1 |  |  | healthy volunteers | 250 mg, fasted |  | participants with limb abscess | 0%
Nc1ccc(C(=O)NCC(=O)O)cc1 | THP-1 | pyroptotic LDH release |  | 2 µM, 40 min, added: LPS then nigericin |  | inhibition | -3.65%
CN1C(=O)[C@@H](NC(=O)c2nnc(Cc3ccccc3)[nH]2)COc2cccnc21 |  |  | human, plasma | oral, 100 mg once daily, day 14, geometric mean |  | terminal half-life | 6.29 h

A few entries again:
SMILES | target or system | test | test system | setting | how to read | measurement | result
CCCCCCCCCCCCCCCC(=O)N[C@@H](CCC(=O)NCCCC[C@@H]1NC(=O)[C@H]([C@@H](C)CC)NC(=O)[C@@H](NC(=O)[C@@H]2CCCN2C(=O)[C@H](Cc2ccccc2)NC(=O)[C@H](Cc2c[nH]cn2)NC(=O)[C@@H](NC(=O)[C@H](CC(=O)O)NC(=O)CC(C)C)[C@@H](C)O)CSSC[C@@H](C(=O)N[C@@H](CCCCN)C(N)=O)NC(=O)CNC(=O)[C@H](CCCCN)NC(=O)[C@H](CO)NC(=O)[C@H](CCCNC(=N)N)NC(=O)[C@@H]2CCCN2C(=O)[C@H](CCC(=O)O)NC(=O)[C@H](Cc2ccccc2)NC1=O)C(=O)O |  |  | healthy volunteers, plasma | subcutaneous, 60 mg single, lyophilised formulation |  | Vz/F | 104 ± 84.8 L
O=C(O)c1cc(O)c2c(c1)C(=O)c1cccc(O[C@@H]3O[C@H](CO)[C@@H](O)[C@H](O)[C@H]3O)c1C2=O | HK-2 co-cultured with HepaRG | MTT |  | 16.67 µM, 24 h | relative to: untreated control | cell viability | 104 ± 8.97%
